# Assay results gathered from unrelated publications.
# A part holds a random share of what one study measured.

# Study 1
# Target: RING finger protein unkempt homolog, zinc fingers 1-6, GST-SBP tag (UNK, Homo sapiens, UniProt Q9C0B0, residues 30-357)
# Technique: RNA Bind-n-Seq
# Form: RNA
# Sample: in vitro
# Concentration: not given
# Notes: RNA with constant flanks, ends assumed
# Baseline: input RNA pool
# Direction: higher = stronger binding
# Shared flanks, not repeated: GGGAGUUCUACAGUCCGACGAUC … CAACAGAGGAUUGAGCAUCA
# Construct (chain): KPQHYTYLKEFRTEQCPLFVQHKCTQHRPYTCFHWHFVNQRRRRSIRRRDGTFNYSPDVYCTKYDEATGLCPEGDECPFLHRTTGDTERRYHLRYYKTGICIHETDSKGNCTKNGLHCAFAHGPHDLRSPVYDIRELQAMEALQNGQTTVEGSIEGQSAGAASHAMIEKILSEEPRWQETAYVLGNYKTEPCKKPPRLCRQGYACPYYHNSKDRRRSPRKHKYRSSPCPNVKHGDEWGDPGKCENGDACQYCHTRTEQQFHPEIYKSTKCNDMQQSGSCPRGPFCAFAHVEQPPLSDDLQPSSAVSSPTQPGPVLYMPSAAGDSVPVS
Sequence,bound/input enrichment [ratio]
AAAGUCCACAGUGCAGUGCCUGUCCAGUGUUCAGUGGAGUUUCUGGCACUGGUACAUCUCAACCGGAUUUCUUUUUAAGAGUACUGUACUGUCUCUUGAAGCCAGUCAGGGACUUUUUAA,0.139
UCCUUCCCACAUCACAGGGCUACCUUGAGACUUUCUGAGAAGUUUAUUCUUCUCCUUAUUCUCCGUGCCUUCAUCACUCUGUGUUUUGGGGCAUUCUUUUUCCUUCCAGACUCUUCAAAA,0.334
UGAGAAUGUUAUUUAAAGUUGUAUUAUAAUGUCACCUCCAAUAAUUAUUCAGUACUGCCGCCGCAAUGUGUUAUUUGUAAGAAUUUGGUUAUUUUUUAUACUUAUAUCCACUCUAAGUCU,0.295
AAGGACCAGUUCAAGAUGCCCCGGGACUGAGGCCGCCCUGCACCUUCAGCGGAUUUGGGGAUCCGGCUCUUUUAGGUAACUGGCUUUCCUGCUGGUCCGUGCGGGAAAUUCAGUCUUGAU,0.168
CUUGAUUUGGUCCAUGGGAAACCACGAGACAACAAGCAAGCAGGGGUGUUUGAACCAACCACCGUUAAAGUGAAGAGCCUGAAGUUCGCAACAGAGGCUGCAAUCACCAUCCUUCGGAUU,0.0717
UUCUUUAUGUUUGUAGUCUUGAUGUGCUCCUGUGGUAUUACUUCCCCUCUGAUAGGACAUUGCCGCCAGCCUCAGCACUCAGUGAGUUCAUCAGGGCCACACCCAGUAGAGAAGGCCAAG,0.906

# Study 2
# Target: Sal-like protein 4, full length isoform B (SALL4, Homo sapiens, UniProt Q9UJQ4-2, residues 1-616)
# Technique: universal PBM
# Form: double-stranded DNA, one strand shown
# Sample: in vitro
# Concentration: not given
# Notes: 8-mer, flanks averaged, mean of replicates
# Direction: higher = stronger binding
# Residues (chain): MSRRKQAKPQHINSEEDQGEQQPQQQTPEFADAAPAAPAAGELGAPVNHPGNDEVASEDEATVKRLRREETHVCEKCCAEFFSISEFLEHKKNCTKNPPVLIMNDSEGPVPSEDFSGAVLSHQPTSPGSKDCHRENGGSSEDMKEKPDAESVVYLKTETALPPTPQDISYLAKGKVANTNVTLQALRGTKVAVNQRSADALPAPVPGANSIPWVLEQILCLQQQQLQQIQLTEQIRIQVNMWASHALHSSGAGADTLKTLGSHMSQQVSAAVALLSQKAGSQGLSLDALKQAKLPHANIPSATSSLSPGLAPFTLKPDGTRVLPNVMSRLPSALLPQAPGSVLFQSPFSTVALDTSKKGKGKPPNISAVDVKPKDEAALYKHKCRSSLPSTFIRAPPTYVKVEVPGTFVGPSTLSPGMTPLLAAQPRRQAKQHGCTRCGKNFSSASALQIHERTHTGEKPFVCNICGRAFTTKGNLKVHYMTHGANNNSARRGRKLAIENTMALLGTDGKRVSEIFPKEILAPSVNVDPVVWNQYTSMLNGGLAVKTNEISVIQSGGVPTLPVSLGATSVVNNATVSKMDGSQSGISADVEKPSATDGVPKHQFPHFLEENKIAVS
Sequence,E-score
GCCAGCGA,-0.322
CCCAACGG,-0.291
CAATTATG,0.371
CTCTAGGC,-0.231
CCCTAATC,-0.114

# Study 3
# Target: Interferon regulatory factor 3, full length, phosphomimetic (IRF3, Homo sapiens, UniProt Q14653, residues 1-427, S386D/S396D/S398D/S402D/T404D/S405D)
# Sequence of UniProt Q14653 (whole entry, unmodified, looked up): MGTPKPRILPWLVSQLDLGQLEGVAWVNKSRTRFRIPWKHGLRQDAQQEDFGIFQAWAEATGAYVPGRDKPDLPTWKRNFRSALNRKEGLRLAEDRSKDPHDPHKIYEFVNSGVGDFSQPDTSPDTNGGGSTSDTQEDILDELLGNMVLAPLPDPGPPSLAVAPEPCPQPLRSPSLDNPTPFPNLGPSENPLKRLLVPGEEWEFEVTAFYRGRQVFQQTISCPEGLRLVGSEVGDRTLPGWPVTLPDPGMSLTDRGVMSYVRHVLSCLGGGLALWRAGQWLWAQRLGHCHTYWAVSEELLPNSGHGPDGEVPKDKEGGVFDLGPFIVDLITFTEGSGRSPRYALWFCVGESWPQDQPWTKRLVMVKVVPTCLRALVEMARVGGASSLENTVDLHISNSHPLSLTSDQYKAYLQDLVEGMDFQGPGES
# Technique: protein-binding microarray
# Form: double-stranded DNA, one strand shown
# Sample: in vitro
# Concentration: 2540 nM top
# Notes: 60-bp whole probe
# With: salmon DNA 0.4 mg/ml
# Baseline: random background probes
# Direction: higher = stronger binding
# Shared flanks, not repeated: GCCTAGCAC … GTCTTGATTCGCTTGACGCTGCTG
Sequence,fitted relative affinity [z-score]
GACCGTATCGACTATCGGGACGTGCTA,1.2
TTAGATATCACTTTCGATTAGTGCTAG,4.14
GTAGATATCAGTCTCGATTAGTGCTAG,1.39
TTAGGTTTCGGTATCGGATAGTGCTAG,9.18
GACGGTTTCGGTTCGGGGACGTGCTAG,7.84
CATTCTCTGTTTATGTCTGGGTGCTAG,5.48

# Further values, each from its own experiment
Substance,target,test,system,setting,how to read,endpoint,result
"PhoQ, residues 284 288 289 292 302 303 GLASVI","PhoP, residues 12 14 15 18 19 LWHVM (Escherichia coli, UniProt P23836)","Sort-seq, refers to: YFP reporter",E. coli,"PhoQ-PhoP variant library, with: 10 µM Mg2+","baseline: high Mg2+ state, higher = stronger signaling",fold induction,9.14

# Excerpt of the above (study 3):
Sequence,fitted relative affinity [z-score]
TTAGGTTTCGGTATCGGATAGTGCTAG,9.18
GACGGTTTCGGTTCGGGGACGTGCTAG,7.84
